Published values collected from several papers.
Parts stem from different laboratories: compare values within a part only.

Study 1 — method: protein binding microarray; molecule type: double-stranded DNA, one strand shown; medium: in vitro; tested at: not given; reference: not given; reading: higher = stronger binding
Target: Histone acetyltransferase KAT6A, winged helix 2, GST fusion (KAT6A, Homo sapiens, UniProt Q92794, residues 85-181)
Notes: 8-mer, flanks averaged, mean of 2 arrays, mostly near background
Construct (chain): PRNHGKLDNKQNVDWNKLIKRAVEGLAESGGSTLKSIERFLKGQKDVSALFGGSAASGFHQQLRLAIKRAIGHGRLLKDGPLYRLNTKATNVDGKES
For `ACGGAGTC`, the E-score was 0.08.
The E-score of `CGTGGTAC` is reported as -0.0377.
`AAGTGTTA` gave an E-score of -0.127.
The E-score of `ATAAGAGA` is reported as -0.0685.
With `ATGTTATC` the E-score was -0.0967.
For `CTCCCAGC`, the E-score was 0.0333.
The E-score of `CAACAAAC` is reported as 0.0162.
The E-score of `GATCTTCA` is reported as 0.13.
`AAATGGAT` gave an E-score of -0.175.
`CTCGATGC` gave an E-score of 0.114.
With `GTTATTCA` the E-score was 0.0835.
`AAACACGC` has an E-score of 0.0766.
`AGTAGTTC` has an E-score of -0.00283.
`AGAACTAG` gave an E-score of -0.0188.
With `CAGTCCGG` the E-score was 0.0771.
With `ATTTTTGC` the E-score was -0.0264.
The E-score of `ATTCTACC` is reported as -0.0677.

Study 2 — method: RNA Bind-n-Seq; molecule type: RNA; medium: in vitro; tested at: 365 nM; reference: no-protein control; reading: higher = stronger binding
Target: RNA binding protein fox-1 homolog 2, RRM domain, GST-SBP tag (RBFOX2, Homo sapiens, UniProt O43251-10, residues 100-194)
Notes: natural RNA segment, single round, ends assumed
Construct (chain): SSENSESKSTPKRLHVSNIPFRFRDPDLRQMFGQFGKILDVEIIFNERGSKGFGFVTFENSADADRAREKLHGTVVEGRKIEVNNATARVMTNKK
For `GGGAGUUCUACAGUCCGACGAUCAUCAACUUUUAAAAACAUUUGACUGUUUUUGUUACAUGCAUUGUAUUUCUGCUUUGUCUAUAAGAAGUGGUCAAGUCCAACUCUGUGACAACUCUUAACUUGCCUCCCUGUGGAAUUCUCGGGUGCCAA`, “RBNS enrichment (R)” read 0.267.
`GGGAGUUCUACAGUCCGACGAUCGACUGAAUUAUGUGACUUUAAAGGAUGUAACUGCCCAACAUUUGCAGAUUCUGGGUGGUCUAUGUGACCAUUUGUCUCGUAUCCAAAAACCCCGGGGCUAUUGGAACCCUUGGAAUUCUCGGGUGCCAA`: “RBNS enrichment (R)” 0.367.
For `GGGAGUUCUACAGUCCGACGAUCAGUGUCAGGACUUUGCAGUGUAGCUCAUGCAAAGAGAGUGUUCUAUAAAAAUCUUGACAGCUGAACUCAGUUGCUCUUUCCUGGCAGGAGGUGGGGGUGGGAUCUAACAUUGGAAUUCUCGGGUGCCAA`, “RBNS enrichment (R)” read 0.658.
`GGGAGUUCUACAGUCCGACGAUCAUUUUUUACUCCCGCUAAUUUCAAUCAAUCGUUUUCAAAAGCGCACGAGAUUCACUCAUUGGAUUUAUGCAGUGCCCUGUCUGUAUAAAAACUCUUAAGAGUUCCUUUAUUGGAAUUCUCGGGUGCCAA`: “RBNS enrichment (R)” 0.639.
Under “RBNS enrichment (R)”, `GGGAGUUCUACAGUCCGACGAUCCUCCUAAACCAAGCAGAAUUUUGGGAAGAGAUAACAGCCAGGGAGAUAUUGCCCAUGAUUCUCACUUUUUCUUUGCCUGGCAUCUAAGCAGGAACCCAUUGUGGAGUAGAUGGAAUUCUCGGGUGCCAA` is recorded as 0.984.
`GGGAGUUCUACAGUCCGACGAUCCGCCCAACCUUUUACAAAUGGCAUUUUCUUAAUUGAAAAUCCGGGAAGCAGGUGUGAUUACUUUUUUGCUCGUAGAUAUUGUCCUAAGUUGGAAUUCUCCCACUGCCCUAUGGAAUUCUCGGGUGCCAA` — result for “RBNS enrichment (R)”: 0.535.
`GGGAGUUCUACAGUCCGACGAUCUGUAGUGCAGAACGUUUAUUGCUGUUUUUGUGUUUGAAUAGUAUAAUGUUUGAUGCCUCUCUUCUGCAAAGCGUAUCAUCUCAUUGACUGUGAAUCUGUAUAUUAUUCUGUGGAAUUCUCGGGUGCCAA` — result for “RBNS enrichment (R)”: 0.731.
`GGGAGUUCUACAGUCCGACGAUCUCAUUCAAAUCUUGGAUUUUUUUUUUUCCCUAAGAGAUUCUCUUUUUAGGGGGAAUGGGAAACGGACACCUCAUAAAGGGUUCAAAGAUCAUCAAUUUUUCUGACUUUUUUGGAAUUCUCGGGUGCCAA` — result for “RBNS enrichment (R)”: 0.41.
Under “RBNS enrichment (R)”, `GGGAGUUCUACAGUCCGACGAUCUAGUUUACAGAUCAUAAUCCUAAGCAGUCAGGAGAGAAAUACGAACAGAAAUUACAUGAGGAAUAUUCCGGCUAGAUUAGGCGCCUGUGGAUAUUGGAGUUGGGUUGAUUUGGAAUUCUCGGGUGCCAA` is recorded as 0.743.

Study 3 — method: competition protein-binding microarray; molecule type: double-stranded DNA, one strand shown; medium: in vitro; tested at: 2 µM; added: Pho4 competitor, 0.05 µM; reading: higher = stronger binding
Target: Centromere-binding protein 1, full length, His-tagged (CBF1, Saccharomyces cerevisiae, UniProt P17106, residues 1-351)
Chain of UniProt P17106 (whole entry, looked up): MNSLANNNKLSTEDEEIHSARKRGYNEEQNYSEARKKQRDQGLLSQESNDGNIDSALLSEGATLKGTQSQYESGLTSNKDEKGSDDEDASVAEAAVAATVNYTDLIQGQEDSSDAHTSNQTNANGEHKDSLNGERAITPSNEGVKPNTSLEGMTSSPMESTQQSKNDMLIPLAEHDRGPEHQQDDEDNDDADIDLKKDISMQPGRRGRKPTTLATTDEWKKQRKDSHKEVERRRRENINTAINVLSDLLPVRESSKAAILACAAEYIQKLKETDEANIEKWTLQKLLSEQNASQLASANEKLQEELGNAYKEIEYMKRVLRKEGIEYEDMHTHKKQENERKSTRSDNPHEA
Notes: whole 60-bp probe, lowest competitor level
For `CGTCCTAGTGATTGGCTAGTGGGTGCCATGAGGAAGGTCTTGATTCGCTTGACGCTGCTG`, the fluorescence intensity was 74.2 a.u.
With `TTCGAAATAGATTCCCAAAAAAAAAAAAAGGGATATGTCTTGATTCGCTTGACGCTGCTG` the fluorescence intensity was 103 a.u.
`ATTTTTACTTTAGTGCGCGTGGGTAGCCGAGCCTCGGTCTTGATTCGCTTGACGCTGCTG` has a fluorescence intensity of 65.3 a.u.
For `GTTCTTGCGATGAGCTGCCCTTGCAAATTTTTCACCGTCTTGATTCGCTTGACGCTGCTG`, the fluorescence intensity was 89.2 a.u.
For `AGTTGATTTTTTTTTCTCGTGGTGAGAGATAAATAAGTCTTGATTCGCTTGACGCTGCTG`, the fluorescence intensity was 99.8 a.u.
`GTCTTGTCTCATTGTCACGAAACTTTCCCCACTTCAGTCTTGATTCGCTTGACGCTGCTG` has a fluorescence intensity of 114 a.u.
`AAACTTTCTGTGGAAATCGTGCCGATTAAACCATTAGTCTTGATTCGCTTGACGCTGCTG` gave a fluorescence intensity of 78.2 a.u.
With `TTGAGTAACTTTGGGCAGGTGACAGGTAAACCCCTTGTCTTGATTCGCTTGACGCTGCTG` the fluorescence intensity was 339 a.u.
`ATGGGCAAGCGCATCCATGTGGCGTTTCCTACTTTTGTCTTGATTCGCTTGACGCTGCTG` has a fluorescence intensity of 69.3 a.u.
With `CTTTCCCGATCTTGTTCTGTGGGTGTAGCACATTTGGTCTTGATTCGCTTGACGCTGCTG` the fluorescence intensity was 71.6 a.u.
For `AAATTACTAAGTTTTCACGTGGCGTACCCCGTATGAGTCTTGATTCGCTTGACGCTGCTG`, the fluorescence intensity was 682 a.u.
For `GTCCCCCCGCCACACATCGTGGAATAATCGCTATCGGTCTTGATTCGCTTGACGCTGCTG`, the fluorescence intensity was 128 a.u.
`TCTGATACGTATCACCACGTGGCCGGTACTTGTTCTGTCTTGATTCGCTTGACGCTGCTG` has a fluorescence intensity of 1200 a.u.
`AGATTTTCAAAATCGCATGTGATATAGTCGAAAGGGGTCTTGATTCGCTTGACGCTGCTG` gave a fluorescence intensity of 447 a.u.
`CTAACGAAGGTTTGTAATGTGGGTGACAAGCCAAGTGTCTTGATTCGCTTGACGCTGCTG` gave a fluorescence intensity of 73.8 a.u.
For `CTACGGAATAGCGGCCACGTTTCCGTAGGTTACTATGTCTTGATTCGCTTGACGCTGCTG`, the fluorescence intensity was 127 a.u.
For `CTTCTGTAAATTTTTCACGTGCCTTGACGCGCCCCGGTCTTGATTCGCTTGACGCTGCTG`, the fluorescence intensity was 953 a.u.
With `GTCCTGGCACCATCAATCGTGCTTTGACCAGTATGTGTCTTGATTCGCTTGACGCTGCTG` the fluorescence intensity was 75.7 a.u.
`TCCTTGCAGTACTATCACCTGCACCGGTTACCATCCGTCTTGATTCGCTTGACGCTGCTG` gave a fluorescence intensity of 98.3 a.u.
`GTTACCCGGTCGAGTCACGTGCGGATGCGGAGGGCAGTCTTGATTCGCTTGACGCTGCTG` gave a fluorescence intensity of 5480 a.u.
`TCACAGGAAAAGGCCCACATGCCAAAAAGGGTACCAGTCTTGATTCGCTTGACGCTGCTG` gave a fluorescence intensity of 79 a.u.
With `CTAACGAAGGTTTGCCTCGTGGGTGACAAGCCAAGTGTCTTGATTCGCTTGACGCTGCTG` the fluorescence intensity was 88.6 a.u.
The fluorescence intensity of `AAAGCGGTAATTTGTCACGGTACTTCACATATCTATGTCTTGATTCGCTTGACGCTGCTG` is reported as 207 a.u.
For `CGAAGAGGTTCCTATCACCTGCATTCGGTGTTTCTAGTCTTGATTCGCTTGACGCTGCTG`, the fluorescence intensity was 84.8 a.u.
`GAGATGATATGTTTGCTGGTGTCGCACTGCCTTTCAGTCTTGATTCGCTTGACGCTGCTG` has a fluorescence intensity of 61.4 a.u.

Study 4 — method: RNA Bind-n-Seq; molecule type: RNA; medium: in vitro; tested at: not given; reference: input RNA pool; reading: higher = stronger binding
Target: RING finger protein unkempt homolog, zinc fingers 1-6, GST-SBP tag (UNK, Homo sapiens, UniProt Q9C0B0, residues 30-357)
Chain of UniProt Q9C0B0 (30-357, looked up): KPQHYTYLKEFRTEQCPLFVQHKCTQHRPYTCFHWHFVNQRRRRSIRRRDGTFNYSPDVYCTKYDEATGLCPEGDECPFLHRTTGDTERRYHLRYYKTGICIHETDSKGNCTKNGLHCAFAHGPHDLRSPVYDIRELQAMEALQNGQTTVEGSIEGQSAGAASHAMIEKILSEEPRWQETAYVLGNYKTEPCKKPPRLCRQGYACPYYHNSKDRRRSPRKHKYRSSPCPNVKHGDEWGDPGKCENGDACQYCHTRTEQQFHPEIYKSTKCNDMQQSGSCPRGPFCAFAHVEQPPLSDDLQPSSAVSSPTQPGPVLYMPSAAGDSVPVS
Notes: RNA with constant flanks, human-mouse chimeric sites, ends assumed
With `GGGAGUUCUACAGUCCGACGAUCUCUUAACUUAUUCAUUUAACUUAUUUUUAUAGCUAGAUAAAUAUUGUUAGUCUUAGUCAAUAGCUCACAUUUUUUGAAAAGCAUGCUCUCCCUGUCCAUUUGUCUUAUAACAUGACCCAGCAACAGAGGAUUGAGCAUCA` the bound/input enrichment was 57.7 ratio.
`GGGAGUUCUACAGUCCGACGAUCCUGGCCUGGCCCUCCCCAGGGGCCUCCUUCUCUGCAUUCACUGCUUCUGCUACGGAUACUUUCAGCUGCAACUCCCUACUGGGUGGGGCACCCAUUUCAGGCAGAAGGUUUUGGUACCCUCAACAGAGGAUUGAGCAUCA` has a bound/input enrichment of 0.21 ratio.
`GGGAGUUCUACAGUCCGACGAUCCUGGCACUCUAUCAGAUAGAUUACUUUUUUAAUGUAGAUGUAAUUUUAAAAAUGAAUGGCUACUUUACACGUUUAACUAGGGUUUUACUAUAUAUGUGUACAUAUGUAUAUAUAUAUAUACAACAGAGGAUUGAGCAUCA` has a bound/input enrichment of 19.4 ratio.
`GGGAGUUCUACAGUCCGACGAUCAAAGAGUGGAUAGAGUGUGCACAUGGAAUCGGUGGGACCCGGGCGAAAAAGGAGUGCAAGAUAGAGUUCGAUGACUUCGUAGAGUGUUUGCUUCGGUACAAAACGAUGAGGCGAAUGCAUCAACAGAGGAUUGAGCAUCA` gave a bound/input enrichment of 0.46 ratio.
The bound/input enrichment of `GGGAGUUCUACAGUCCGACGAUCGAGCGUCUUGCCCGCACUGGGAUCAUCGUGACCACGAGUGAGGCUGUCCUCCUACAGCUGGUGGCUGACAAAGACCACCCGAAGUUCAAGGAAAUUCAGAACCUAAUUAAGGCGAGUGCCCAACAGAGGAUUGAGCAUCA` is reported as 0.1 ratio.
The bound/input enrichment of `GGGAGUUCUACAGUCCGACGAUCCCCCAAUUACCAUCUGUGGUCUGGAACUGCACUCUCUUUUUUAAAAAACAUGUAUACAUUUUAGGGCUGUAGAUUUAUUUUCCUGGUUUUGUUUUUCAUUGCUGACUUUGAGCACAAGAACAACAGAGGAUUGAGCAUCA` is reported as 3.04 ratio.
For `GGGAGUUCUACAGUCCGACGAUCGAGCGUCUUGCCCGCACUGGGAUCAUCGUGACCACUAGUGAGGCUGUCCUCCUACAGCUGGUGGCUGAUAAGGACCACCCGAAGUUCAAGGAAAUUCAGAACCUAAUUAAGGCGAGUGCCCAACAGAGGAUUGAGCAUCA`, the bound/input enrichment was 0.155 ratio.
For `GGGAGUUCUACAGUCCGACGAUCGAUAAGAAAAACUUGUUGGAGACCCGCUUGCAUGUCACUGGUAGAGACCUGAGGUGUCAAAUAGCUGAAACCUUUGGAUUUCAAGAAAAUUACAUCAAGAUCGUAAUAAAUAAGAAACAGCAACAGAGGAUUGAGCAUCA`, the bound/input enrichment was 0.273 ratio.

For quick reference, copied from above (study 1):
`AGTAGTTC` has an E-score of -0.00283.
With `ATGTTATC` the E-score was -0.0967.
With `CAGTCCGG` the E-score was 0.0771.
The E-score of `CAACAAAC` is reported as 0.0162.
`CTCGATGC` gave an E-score of 0.114.
With `GTTATTCA` the E-score was 0.0835.
With `ATTTTTGC` the E-score was -0.0264.
